Experimental data pooled from the literature.
A part holds a random share of what one study measured. pEC50: −log10 of the molar value.
Sequence of UniProt P10721 (whole entry, unmodified, looked up): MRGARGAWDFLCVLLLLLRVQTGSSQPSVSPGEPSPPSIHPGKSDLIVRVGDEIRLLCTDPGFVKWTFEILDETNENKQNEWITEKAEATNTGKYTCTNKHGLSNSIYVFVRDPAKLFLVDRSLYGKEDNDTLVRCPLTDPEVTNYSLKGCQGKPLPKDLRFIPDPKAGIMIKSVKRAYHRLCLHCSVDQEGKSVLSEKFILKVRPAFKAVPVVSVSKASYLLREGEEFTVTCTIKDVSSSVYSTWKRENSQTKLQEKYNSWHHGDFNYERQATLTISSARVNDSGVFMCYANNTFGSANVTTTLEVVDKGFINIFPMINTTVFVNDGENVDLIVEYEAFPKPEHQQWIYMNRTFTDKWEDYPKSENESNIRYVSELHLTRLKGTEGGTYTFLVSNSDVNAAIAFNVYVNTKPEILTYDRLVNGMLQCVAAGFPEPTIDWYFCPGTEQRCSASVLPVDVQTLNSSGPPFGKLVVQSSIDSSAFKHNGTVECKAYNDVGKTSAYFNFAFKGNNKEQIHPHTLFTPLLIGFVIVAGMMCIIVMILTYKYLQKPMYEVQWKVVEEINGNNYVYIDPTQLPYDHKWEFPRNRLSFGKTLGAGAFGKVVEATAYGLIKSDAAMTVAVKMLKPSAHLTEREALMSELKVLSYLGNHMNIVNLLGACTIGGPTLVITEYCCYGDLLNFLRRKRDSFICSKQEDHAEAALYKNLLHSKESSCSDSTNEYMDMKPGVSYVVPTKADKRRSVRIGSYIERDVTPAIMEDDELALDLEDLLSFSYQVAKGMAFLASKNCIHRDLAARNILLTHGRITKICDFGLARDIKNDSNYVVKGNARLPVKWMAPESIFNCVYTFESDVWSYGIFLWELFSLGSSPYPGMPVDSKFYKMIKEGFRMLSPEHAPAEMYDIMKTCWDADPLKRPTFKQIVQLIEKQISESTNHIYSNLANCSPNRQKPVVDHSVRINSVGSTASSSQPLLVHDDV
Sequence of UniProt P50750 (whole entry, looked up): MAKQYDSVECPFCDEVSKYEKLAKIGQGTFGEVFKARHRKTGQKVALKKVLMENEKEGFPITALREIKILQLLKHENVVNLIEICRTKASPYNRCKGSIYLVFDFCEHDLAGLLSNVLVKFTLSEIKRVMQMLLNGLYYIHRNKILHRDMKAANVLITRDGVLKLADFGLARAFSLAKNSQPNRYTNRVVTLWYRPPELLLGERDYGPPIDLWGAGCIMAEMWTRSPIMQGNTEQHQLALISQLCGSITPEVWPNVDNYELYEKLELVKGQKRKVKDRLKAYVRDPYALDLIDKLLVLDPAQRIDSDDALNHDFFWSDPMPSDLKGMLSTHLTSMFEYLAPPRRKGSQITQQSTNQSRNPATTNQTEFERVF
Sequence of UniProt P48729 (whole entry, looked up): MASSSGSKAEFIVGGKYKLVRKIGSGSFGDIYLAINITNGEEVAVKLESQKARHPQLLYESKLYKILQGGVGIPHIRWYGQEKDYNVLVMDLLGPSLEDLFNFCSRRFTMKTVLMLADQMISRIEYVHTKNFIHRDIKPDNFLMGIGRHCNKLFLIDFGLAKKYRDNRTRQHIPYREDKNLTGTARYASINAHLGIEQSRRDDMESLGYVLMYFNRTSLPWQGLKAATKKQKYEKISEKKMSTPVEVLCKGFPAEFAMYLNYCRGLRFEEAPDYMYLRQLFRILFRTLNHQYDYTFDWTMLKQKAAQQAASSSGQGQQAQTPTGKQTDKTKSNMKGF
Sequence of UniProt Q9UKE5 (whole entry, looked up): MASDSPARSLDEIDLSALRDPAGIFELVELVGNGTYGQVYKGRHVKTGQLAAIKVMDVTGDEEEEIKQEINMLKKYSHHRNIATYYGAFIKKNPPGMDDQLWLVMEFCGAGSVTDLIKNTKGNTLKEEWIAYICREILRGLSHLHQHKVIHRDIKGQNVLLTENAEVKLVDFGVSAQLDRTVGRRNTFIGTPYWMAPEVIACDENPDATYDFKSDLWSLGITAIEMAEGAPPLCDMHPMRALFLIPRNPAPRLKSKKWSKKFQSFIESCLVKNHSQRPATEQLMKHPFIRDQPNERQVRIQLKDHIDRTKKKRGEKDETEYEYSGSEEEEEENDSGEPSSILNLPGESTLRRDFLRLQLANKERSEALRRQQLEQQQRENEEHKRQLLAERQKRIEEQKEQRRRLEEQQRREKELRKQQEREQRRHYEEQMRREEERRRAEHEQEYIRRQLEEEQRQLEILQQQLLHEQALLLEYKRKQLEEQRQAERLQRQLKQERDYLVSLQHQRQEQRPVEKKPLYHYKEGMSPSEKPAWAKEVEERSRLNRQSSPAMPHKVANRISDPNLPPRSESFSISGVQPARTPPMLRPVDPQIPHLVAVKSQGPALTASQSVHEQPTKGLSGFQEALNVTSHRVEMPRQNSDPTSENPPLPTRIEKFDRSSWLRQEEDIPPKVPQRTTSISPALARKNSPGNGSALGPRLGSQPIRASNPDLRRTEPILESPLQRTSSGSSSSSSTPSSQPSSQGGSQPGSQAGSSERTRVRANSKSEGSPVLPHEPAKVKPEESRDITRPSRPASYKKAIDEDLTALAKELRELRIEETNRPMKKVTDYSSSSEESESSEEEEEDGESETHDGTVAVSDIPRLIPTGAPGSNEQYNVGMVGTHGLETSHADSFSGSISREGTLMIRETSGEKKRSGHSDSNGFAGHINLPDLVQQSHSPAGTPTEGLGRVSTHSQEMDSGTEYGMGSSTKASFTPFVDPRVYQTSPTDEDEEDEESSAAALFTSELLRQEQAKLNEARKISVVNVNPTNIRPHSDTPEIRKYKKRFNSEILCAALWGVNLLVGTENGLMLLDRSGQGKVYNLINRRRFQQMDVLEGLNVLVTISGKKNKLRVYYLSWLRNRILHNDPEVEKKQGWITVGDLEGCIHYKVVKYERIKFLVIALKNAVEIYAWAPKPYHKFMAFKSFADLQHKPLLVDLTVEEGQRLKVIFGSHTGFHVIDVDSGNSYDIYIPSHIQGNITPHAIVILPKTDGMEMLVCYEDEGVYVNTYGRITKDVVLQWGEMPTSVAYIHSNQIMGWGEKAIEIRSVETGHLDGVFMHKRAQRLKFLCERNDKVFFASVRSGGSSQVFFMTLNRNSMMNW
Sequence of UniProt Q7L7X3 (whole entry, looked up): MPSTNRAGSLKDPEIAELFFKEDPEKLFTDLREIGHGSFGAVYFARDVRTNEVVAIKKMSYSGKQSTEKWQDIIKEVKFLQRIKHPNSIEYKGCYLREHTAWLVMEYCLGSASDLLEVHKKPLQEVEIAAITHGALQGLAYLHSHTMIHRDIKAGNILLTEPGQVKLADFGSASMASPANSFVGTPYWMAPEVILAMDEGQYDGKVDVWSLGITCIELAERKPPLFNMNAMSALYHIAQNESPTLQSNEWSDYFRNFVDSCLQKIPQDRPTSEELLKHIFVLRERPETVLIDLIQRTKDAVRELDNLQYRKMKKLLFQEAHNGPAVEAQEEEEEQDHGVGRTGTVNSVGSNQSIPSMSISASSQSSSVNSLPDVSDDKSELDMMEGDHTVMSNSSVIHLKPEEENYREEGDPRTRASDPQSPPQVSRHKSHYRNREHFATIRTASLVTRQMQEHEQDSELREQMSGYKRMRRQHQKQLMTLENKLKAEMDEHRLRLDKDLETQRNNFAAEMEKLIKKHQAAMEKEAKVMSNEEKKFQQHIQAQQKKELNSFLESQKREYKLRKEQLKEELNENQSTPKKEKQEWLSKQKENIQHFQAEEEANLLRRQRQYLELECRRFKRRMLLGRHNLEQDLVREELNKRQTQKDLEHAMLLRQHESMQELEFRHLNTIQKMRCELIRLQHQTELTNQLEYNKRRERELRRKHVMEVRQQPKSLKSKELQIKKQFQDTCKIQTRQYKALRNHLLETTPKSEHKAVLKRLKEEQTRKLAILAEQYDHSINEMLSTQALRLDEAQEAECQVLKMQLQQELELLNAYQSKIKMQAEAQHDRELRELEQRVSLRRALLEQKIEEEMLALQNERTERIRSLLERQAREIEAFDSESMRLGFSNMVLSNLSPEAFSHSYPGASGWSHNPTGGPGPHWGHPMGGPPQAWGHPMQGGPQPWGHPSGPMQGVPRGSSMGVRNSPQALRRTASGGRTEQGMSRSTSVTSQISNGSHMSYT

Series 1
Compound: CC(=O)c1c(NS(C)(=O)=O)c2cc(-c3ccc(Cl)cc3)c(-c3ccc(Cl)cc3Cl)nc2n(C)c1=O
Observed: cell-free assay
Method: competition with immobilised ligand
Concentration: 1 µM
target | remaining binding
TRAF2 and NCK-interacting protein kinase (TNIK, Homo sapiens, UniProt Q9UKE5) | 93%
Cyclin-dependent kinase-like 5 (CDKL5, Homo sapiens, UniProt O76039) | 94%
Homeodomain-interacting protein kinase 2 (HIPK2, Homo sapiens, UniProt Q9H2X6) | 87%
BDNF/NT-3 growth factors receptor (NTRK2, Homo sapiens, UniProt Q16620) | 94%
RAC-alpha serine/threonine-protein kinase (AKT1, Homo sapiens, UniProt P31749) | 89%
Serine/threonine-protein kinase DCLK3 (DCLK3, Homo sapiens, UniProt Q9C098) | 100%
Tyrosine-protein kinase ABL1, phosphorylated (ABL1, Homo sapiens, UniProt P00519, M351T) | 87%
SRSF protein kinase 2 (SRPK2, Homo sapiens, UniProt P78362) | 100%
Mast/stem cell growth factor receptor Kit (KIT, Homo sapiens, UniProt P10721) | 100%
Receptor-interacting serine/threonine-protein kinase 1 (RIPK1, Homo sapiens, UniProt Q13546) | 97%
Fibroblast growth factor receptor 4 (FGFR4, Homo sapiens, UniProt P22455) | 100%
Epidermal growth factor receptor (EGFR, Homo sapiens, UniProt P00533, del752-759) | 100%
Mitogen-activated protein kinase kinase kinase 14 (MAP3K14, Homo sapiens, UniProt Q99558) | 63%
Serine/threonine-protein kinase TAO1 (TAOK1, Homo sapiens, UniProt Q7L7X3) | 92%
Casein kinase I isoform alpha (CSNK1A1, Homo sapiens, UniProt P48729) | 100%
Mast/stem cell growth factor receptor Kit (KIT, Homo sapiens, UniProt P10721, L576P) | 99%
RAF proto-oncogene serine/threonine-protein kinase (RAF1, Homo sapiens, UniProt P04049) | 100%

Series 2
Target: Calcium/calmodulin-dependent protein kinase type II subunit alpha (CAMK2A, Homo sapiens, UniProt Q9UQM7)
Sequence of UniProt Q9UQM7 (whole entry, looked up): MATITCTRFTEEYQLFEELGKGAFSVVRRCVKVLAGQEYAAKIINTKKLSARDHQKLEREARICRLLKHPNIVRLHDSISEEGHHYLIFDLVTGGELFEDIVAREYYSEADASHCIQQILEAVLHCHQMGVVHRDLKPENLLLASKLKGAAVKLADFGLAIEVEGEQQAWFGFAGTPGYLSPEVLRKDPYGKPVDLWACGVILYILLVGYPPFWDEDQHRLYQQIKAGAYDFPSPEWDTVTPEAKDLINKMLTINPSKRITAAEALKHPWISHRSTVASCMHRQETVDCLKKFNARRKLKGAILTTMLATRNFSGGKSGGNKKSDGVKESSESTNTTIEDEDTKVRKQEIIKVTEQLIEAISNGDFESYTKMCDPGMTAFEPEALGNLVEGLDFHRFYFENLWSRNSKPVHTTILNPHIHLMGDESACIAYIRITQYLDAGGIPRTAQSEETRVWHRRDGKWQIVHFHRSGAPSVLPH
Observed: enzyme activity
Action: inhibitor
Concentration: 10 µM
Compound | inhibition [%]
OC[C@H]1O[C@H](Oc2ccc(O)cc2)[C@H](O)[C@@H](O)[C@@H]1O | 5
CC1=C(O)C(=O)C(C)O1 (stereo not shown) | -1
CC(C)=CCc1c2ccoc2c(O)c2oc(=O)ccc12 | -17
Nc1ccc(S(=O)(=O)Nc2ccc(Cl)nn2)cc1 | 5
CC(C)=CC(=O)C[C@H](C)c1ccc(C)cc1 | -7
C[C@H]1C[C@H]2[C@@H]3CCC4=CC(=O)C=C[C@]4(C)[C@H]3C(=O)C[C@]2(C)[C@@]1(O)C(=O)CO | 5
CCCCC(=O)O[C@]1(C(=O)CO)[C@@H](C)C[C@H]2[C@@H]3CCC4=CC(=O)C=C[C@]4(C)[C@@]3(F)[C@@H](O)C[C@@]21C | -3
O=c1c2cc(O)ccc2oc2cc(O)cc(O)c12 | -67
Cc1cc(O)cc(O)c1C(=O)O | -10
NCC(=O)O | 3
C[C@]12C=CC(=O)C=C1CC[C@H]1[C@@H]3C[C@@H](O)[C@](O)(C(=O)CO)[C@@]3(C)C[C@H](O)[C@@]12F | -1
COc1cc(C[C@@H](CO)[C@H](CO)Cc2ccc(O)c(OC)c2)ccc1O | 11
COc1ccc2[nH]c([S@@+]([O-])Cc3ncc(C)c(OC)c3C)nc2c1 | -3
CC(C)CC(=O)O | 19
CCc1cc(/C(C)=N/OCc2ccc(C3CCCCC3)c(C(F)(F)F)c2)ccc1CN1CC(C(=O)O)C1 | 1
CC(O)c1cc(C(=O)N[C@@H](C)Cn2ccc(-c3ccc(C#N)c(Cl)c3)n2)n[nH]1 (stereo partly shown) | -5
CN(C)CCCOc1nn(Cc2ccccc2)c2ccccc12 | -4
CC(=O)OC[C@H](Cc1ccccc1)NC(=O)[C@H](Cc1ccccc1)NC(=O)c1ccccc1 | -25

Series 3
Target: Beta-1 adrenergic receptor (ADRB1, Homo sapiens, UniProt P08588)
Sequence of UniProt P08588 (whole entry, looked up): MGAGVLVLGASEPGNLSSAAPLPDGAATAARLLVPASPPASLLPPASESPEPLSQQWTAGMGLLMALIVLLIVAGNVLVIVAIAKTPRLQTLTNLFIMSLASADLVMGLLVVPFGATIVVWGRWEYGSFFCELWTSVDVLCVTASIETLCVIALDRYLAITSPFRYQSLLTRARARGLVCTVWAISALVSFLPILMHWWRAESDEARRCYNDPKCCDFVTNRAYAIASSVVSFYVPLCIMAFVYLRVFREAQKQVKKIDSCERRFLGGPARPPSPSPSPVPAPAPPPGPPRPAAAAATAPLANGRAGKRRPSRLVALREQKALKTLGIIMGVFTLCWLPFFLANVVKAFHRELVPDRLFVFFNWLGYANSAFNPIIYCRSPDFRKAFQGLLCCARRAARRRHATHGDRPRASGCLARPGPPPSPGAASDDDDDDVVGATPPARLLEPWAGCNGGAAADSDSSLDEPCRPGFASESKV
Action: agonist
Compound | pEC50
Cc1cc(N(C)C)ccc1NC(=O)c1ccc2noc(-c3ccccc3)c2c1 | ≤ 4.00
O=c1c2nc(-c3ccc4c(c3)OCO4)ccc2ncn1-c1ccc(F)cc1F | ≤ 4.00
COc1ccccc1N1CCN([S+](=O)([O-])c2ccc(C)cc2)CC1 | ≤ 4.00
CC1CCN(Cc2ccccc2OCC(O)CN2CCSCC2)CC1 (stereo not shown) | ≤ 4.00
O=C(COc1ccccc1)Nc1ccc([C@@H](O)[C@H]2COCC(=O)N2)cc1 | ≤ 4.00
Cc1noc2c(Nc3ccc(N4CCOCC4)cc3)cc(-c3cccs3)nc12 | ≤ 4.00
O=C(Cc1ccccc1)Nc1ccc([C@@H](O)[C@H]2COCC(=O)N2Cc2ccccn2)cc1 | ≤ 4.00
Cc1noc2c(-c3cccnc3NCCCn3ccnc3)cc(-c3ccccc3)nc12 | ≤ 4.00
Cc1cc2nc3ccc(N(C)C)cc3[s+]c2cc1N | 4.50
COc1cc(CNC2CCCCCCC2)ccc1OCC(O)CN1CCSCC1 (stereo not shown) | ≤ 4.00
CNC(=O)c1cc2cc(-c3c(C)noc3C)nc(-c3ccccc3C)c2o1 | ≤ 4.00
OC(c1ccccc1)c1nc(Nc2ccc(C(F)(F)F)cc2)n[nH]1 (stereo not shown) | ≤ 4.00
Cc1c(-c2ccnc(Nc3cc(Br)cc(C(F)(F)F)c3)n2)sc(=O)n1C | ≤ 4.00
COC[C@@]12CC[C@@H](N3CCOCC3)C[C@H]1CCN(c1nccc(NC(C)C)n1)C2 | ≤ 4.00
COc1ccccc1N1CCN([S+](=O)([O-])c2cc(C)c(C)cc2C)CC1 | ≤ 4.00
COc1ccccc1C1CNC(=O)c2nc(CCN3CCC(C)CC3)[nH]c2C1 (stereo not shown) | ≤ 4.00
O=C(Nc1cccc(-c2ccc(N3CCOCC3)nn2)c1)Nc1ccccc1Cl | ≤ 4.00
Cc1c(CN2CCC(Nc3ncnc4sc(CC(F)(F)F)cc34)CC2)ccc2c1cc(C#N)n2Cc1cn[nH]c1 | ≤ 4.00
N#CC1CCN(Cc2ccccc2OCC(O)CN2CCCCC2)CC1 (stereo not shown) | ≤ 4.00
CN(C)c1ccc(CN2CCNc3cc(Nc4cccnc4)ncc3C2)cc1 | ≤ 4.00

Series 4
Structure (SMILES): CN1CCN(c2ccc3nc(-c4c(N)c5c(F)cccc5[nH]c4=O)[nH]c3c2)CC1
Observed: enzyme activity
Action: inhibitor
Concentration: 0.5 µM
Reference: control
target | remaining activity [%]
Serine/threonine-protein kinase Chk1 (CHEK1, Homo sapiens, UniProt O14757) | 30.8
Leucine-rich repeat serine/threonine-protein kinase 2 (LRRK2, Homo sapiens, UniProt Q5S007) | 24.5
MAP kinase-interacting serine/threonine-protein kinase 2 (MKNK2, Homo sapiens, UniProt Q9HBH9) | 89.6
Tyrosine-protein kinase BTK (BTK, Homo sapiens, UniProt Q06187) | 37.3
Mitogen-activated protein kinase kinase kinase kinase 2 (MAP4K2, Homo sapiens, UniProt Q12851) | 49.4
Mitogen-activated protein kinase 13 (MAPK13, Homo sapiens, UniProt O15264) | 90.4
Cyclin-dependent kinase 9, with cyclin T1 (CDK9, Homo sapiens, UniProt P50750) | 97.7
Serine/threonine-protein kinase 38 (STK38, Homo sapiens, UniProt Q15208) | 97.1
Dual specificity mitogen-activated protein kinase kinase 6 (MAP2K6, Homo sapiens, UniProt P52564) | 82.6
Casein kinase II subunit alpha (CSNK2A1, Homo sapiens, UniProt P68400) | 114
Mast/stem cell growth factor receptor Kit (KIT, Homo sapiens, UniProt P10721) | 9.89
Ephrin type-A receptor 5 (EPHA5, Homo sapiens, UniProt P54756) | 99.1

Excerpt of the above (series 2):
Compound | inhibition [%]
CC(C)CC(=O)O | 19
CC(C)=CCc1c2ccoc2c(O)c2oc(=O)ccc12 | -17
C[C@H]1C[C@H]2[C@@H]3CCC4=CC(=O)C=C[C@]4(C)[C@H]3C(=O)C[C@]2(C)[C@@]1(O)C(=O)CO | 5
OC[C@H]1O[C@H](Oc2ccc(O)cc2)[C@H](O)[C@@H](O)[C@@H]1O | 5
CCCCC(=O)O[C@]1(C(=O)CO)[C@@H](C)C[C@H]2[C@@H]3CCC4=CC(=O)C=C[C@]4(C)[C@@]3(F)[C@@H](O)C[C@@]21C | -3
NCC(=O)O | 3
O=c1c2cc(O)ccc2oc2cc(O)cc(O)c12 | -67
